# Results pooled from the literature.
# A part holds a random share of what one study measured. Changes are numbered by the printed parent chain.

# Sample 1 — technique: protein binding microarray; form: double-stranded DNA, one strand shown; matrix: in vitro; tested at: not given; baseline: not given; direction: higher = stronger binding
# Target: Histone acetyltransferase KAT6A, winged helix 2, GST fusion (KAT6A, Homo sapiens, UniProt Q92794, residues 85-181)
# Setting: 8-mer, flanks averaged, mean of 2 arrays, mostly near background
# Construct (chain): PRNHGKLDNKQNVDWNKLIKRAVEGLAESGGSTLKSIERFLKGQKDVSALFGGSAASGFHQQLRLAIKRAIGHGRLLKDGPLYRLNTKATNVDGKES
Sequence,E-score
AAGCGAAC,-0.0139
GCATACAC,0.0676
GCGTGACC,0.0829
AGTCAGAA,-0.0539
ACCAAATA,0.111
ACGAATCA,0.0806
AACGTATC,-0.198
GGCCCCAC,0.00751

# Sample 2 — target: CCND1, cyclin fold, Cln2 fusion (human); technique: yeast growth competition, sequencing; matrix: yeast; setting: strong parent motif; baseline: not given; direction: higher = stronger binding; starting sequence: viral docking peptide; YKVKRRLVFGADD
Change,normalised enrichment score
YKVKRALVFGADD [R6A],1.07
YKVKRRLKFGADD [V8K],1.11
YKVKRRLVNGADD [F9N],0.0815
YKVKRRLCFGADD [V8C],1.64
YKVKRRLVTGADD [F9T],0.139
YKVKRNLVFGADD [R6N],0.438
YKVKRRLVFGAPD [D12P],0.934
YKVKRRLVFGDDD [A11D],3.95
YKVKRRLVFGRDD [A11R],1.28
YKVKRTLVFGADD [R6T],0.367
YKVKRRLVIGADD [F9I],0.156
YKVKRRQVFGADD [L7Q],-0.407
YKVKHRLVFGADD [R5H],0.0596
YKVKRRLFFGADD [V8F],1.72
YKVKRRLVFVADD [G10V],1.34

# Sample 3 — effect on: binding; technique: phage display NGS; form: peptide; tested at: concentration not given; setting: normalized abundance; baseline: input library
# Target: UDP-N-acetylglucosamine--peptide N-acetylglucosaminyltransferase 110 kDa subunit (OGT, Homo sapiens, UniProt O15294)
# Construct (O15294 1-1046): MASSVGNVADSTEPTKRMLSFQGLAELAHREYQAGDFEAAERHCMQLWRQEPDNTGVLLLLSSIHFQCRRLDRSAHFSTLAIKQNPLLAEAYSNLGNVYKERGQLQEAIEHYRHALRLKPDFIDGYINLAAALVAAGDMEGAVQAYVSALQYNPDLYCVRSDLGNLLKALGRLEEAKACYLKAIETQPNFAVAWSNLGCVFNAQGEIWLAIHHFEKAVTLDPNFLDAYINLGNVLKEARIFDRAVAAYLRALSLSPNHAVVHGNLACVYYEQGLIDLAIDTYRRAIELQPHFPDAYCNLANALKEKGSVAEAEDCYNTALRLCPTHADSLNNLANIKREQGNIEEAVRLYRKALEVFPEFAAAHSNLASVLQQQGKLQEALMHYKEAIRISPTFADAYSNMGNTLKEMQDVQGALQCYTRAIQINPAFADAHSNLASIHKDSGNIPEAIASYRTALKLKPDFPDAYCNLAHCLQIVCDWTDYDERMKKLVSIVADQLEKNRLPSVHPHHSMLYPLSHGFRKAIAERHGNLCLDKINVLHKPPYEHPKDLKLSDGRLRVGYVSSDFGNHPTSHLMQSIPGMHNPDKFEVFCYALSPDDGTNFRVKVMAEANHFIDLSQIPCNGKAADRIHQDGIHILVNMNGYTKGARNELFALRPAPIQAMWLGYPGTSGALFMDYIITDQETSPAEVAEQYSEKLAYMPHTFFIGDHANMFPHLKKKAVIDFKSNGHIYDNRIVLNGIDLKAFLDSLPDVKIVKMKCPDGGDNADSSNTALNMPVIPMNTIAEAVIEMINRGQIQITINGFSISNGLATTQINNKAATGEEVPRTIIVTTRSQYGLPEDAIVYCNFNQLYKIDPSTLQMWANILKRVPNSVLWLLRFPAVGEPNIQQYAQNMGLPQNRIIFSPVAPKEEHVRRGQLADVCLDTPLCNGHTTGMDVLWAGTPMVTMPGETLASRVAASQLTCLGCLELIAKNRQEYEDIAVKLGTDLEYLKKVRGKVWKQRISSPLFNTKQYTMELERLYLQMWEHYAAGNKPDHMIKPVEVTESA
Molecule,enrichment fold change
YQAVPRFHVEHTHHD,9.12
MRTEHIYPPVYTITY,6.57
TVWPHHSPHHDYDT,7.5
VGYHGTPYHKHGAHI,6.53
RFFQPAYQIMPQSYR,4.25

# Sample 4 — technique: RNA Bind-n-Seq; form: RNA; matrix: in vitro; tested at: 20 nM; setting: 6-mer, flanks averaged, single round; together with: 150 mM KCl; baseline: input library; direction: higher = stronger binding
# Target: TAR DNA-binding protein 43, full length, His tag (TARDBP, Homo sapiens, UniProt Q13148, residues 1-414)
Sequence,6-mer enrichment (R)
CAUAGU,0.631
AGCUGG,1.44
GCUUAC,0.63
CCGCAC,0.697
GACCGU,0.816
CACAGU,0.674
UUAGGG,1.78
AGUGGC,1.49

# Excerpt of the above (sample 2):
Change,normalised enrichment score
YKVKRRLKFGADD [V8K],1.11
YKVKRRLVNGADD [F9N],0.0815
YKVKRRLCFGADD [V8C],1.64
YKVKRRLVTGADD [F9T],0.139
YKVKRNLVFGADD [R6N],0.438
YKVKRRLVFGAPD [D12P],0.934
